Results of several laboratories.
Every numbered part comes from another study and shows a few of its results, in no order. Changes are numbered by the printed parent chain.

Sample 1
Target: Prothrombin, mature alpha-thrombin (F2, Homo sapiens, UniProt P00734)
Technique: aptamer microarray, sandwich
Form: DNA with 2'F-ANA
Matrix: in vitro
Tested at: 200 nM
Notes: whole 15-mer aptamer, many near background
Together with: Cy3 exosite-II aptamer, 400 nM
Reading: higher = stronger binding
Strand: GGTTGGTGTGGTTGG
Modification | mean fluorescence intensity [a.u.]
2'F-ANA at 1 3 5 7 11 12 13 | 76.1
2'F-ANA at 1 5 7 10 11 12 13 14 | 47
2'F-ANA at 2 4 6 7 11 12 13 14 15 | 86.8
2'F-ANA at 1 7 8 11 12 13 14 | 79.1
2'F-ANA at 7 9 11 | 528
2'F-ANA at 1 2 4 7 9 10 11 12 14 15 | 284
2'F-ANA at 3 4 5 8 10 | 51.8
2'F-ANA at 1 2 4 5 6 7 14 | 56.8
2'F-ANA at 1 2 3 4 5 6 10 11 12 13 | 48
2'F-ANA at 1 2 5 6 11 12 13 14 | 75.1
2'F-ANA at 2 4 5 6 8 9 11 12 13 | 155
2'F-ANA at 2 7 9 10 11 13 14 15 | 91.2
2'F-ANA at 1 3 4 5 6 10 11 13 | 48.5
2'F-ANA at 4 9 10 12 13 14 | 59
2'F-ANA at 1 3 4 6 7 8 11 12 14 15 | 82.8
2'F-ANA at 2 4 7 8 10 11 12 14 15 | 65.8
2'F-ANA at 1 2 3 4 6 8 11 12 | 303
2'F-ANA at 2 3 5 6 8 9 11 12 13 14 15 | 68.5
2'F-ANA at 3 4 6 8 9 10 | 247
2'F-ANA at 1 2 4 5 6 7 10 13 14 15 | 48
2'F-ANA at 1 3 5 6 9 10 13 | 43.4

Sample 2
Target: Interferon regulatory factor 7, full length, phosphomimetic (IRF7, Homo sapiens, UniProt Q92985, residues 1-503, S101K/S471D/S472D/S475D/S476D/S477D/S483D/S484D/S487D)
Technique: protein-binding microarray
Form: double-stranded DNA, one strand shown
Matrix: in vitro
Tested at: 250 nM
Notes: 60-bp whole probe
Together with: salmon DNA 0.4 mg/ml
Relative to: random background probes
Reading: higher = stronger binding
Constant ends, left off below: GCCTAGCAC … GTCTTGATTCGCTTGACGCTGCTG
Construct (chain): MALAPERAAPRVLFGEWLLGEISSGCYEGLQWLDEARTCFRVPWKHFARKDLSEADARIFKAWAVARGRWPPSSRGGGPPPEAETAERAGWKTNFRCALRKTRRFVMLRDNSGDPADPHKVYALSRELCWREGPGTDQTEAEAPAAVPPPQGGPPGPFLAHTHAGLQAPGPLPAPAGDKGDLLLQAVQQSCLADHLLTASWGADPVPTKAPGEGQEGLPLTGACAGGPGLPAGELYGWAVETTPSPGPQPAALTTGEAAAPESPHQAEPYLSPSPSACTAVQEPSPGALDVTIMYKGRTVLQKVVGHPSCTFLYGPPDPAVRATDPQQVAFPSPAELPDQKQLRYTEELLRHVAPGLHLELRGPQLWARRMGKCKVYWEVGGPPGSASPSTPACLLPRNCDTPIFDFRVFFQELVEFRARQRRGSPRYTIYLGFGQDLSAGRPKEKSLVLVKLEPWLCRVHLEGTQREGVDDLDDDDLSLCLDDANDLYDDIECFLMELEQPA
Strand | log fluorescence [z-score]
AACTTTCTCTGCTCTTTTCAAGTGCTA | 1.13
TCAGAACTGAGTATCGATTAGTGCTAG | 0.487
GACGATATCAGAATCGAGACGTGCTAG | -0.0348
GACGTTTTCAGTATCGAGACGTGCTAG | 1.41
TCGTGGATTGCGACCCCTAGGTGCTAG | -0.507
TTAGGAATCGACTTTCGGTTAGTGCTA | 2.35
TTAGGTTTCTTTTTCCTTTAGTGCTAG | 6.69
GACGATCGCAGTATCGAGACGTGCTAG | -0.195
GACGATATCGGGACTGGACACGTGCTA | -0.384
TTAGGACTGGGGACTGAGTTAGTGCTA | -0.434
CTCTCTTTCCACTTGTCTTTGTGCTAG | 2.06
TTAGGACCGGGGACTGGGTTAGTGCTA | -0.222
GACGATTCCGGGTATCGAGACGTGCTA | 0.643
TTAGGTATCGACACTGGATTAGTGCTA | 0.133
GACGTTTTTCATTTTTTTTTGTGCTAG | 0.947
GACGGTATCCGTTTCGGGACGTGCTAG | 1.78

Sample 3
Target: RING finger protein unkempt homolog, zinc fingers 1-6, SBP tag (UNK, Homo sapiens, UniProt Q9C0B0, residues 30-357)
UniProt Q9C0B0, sequence (30-357, looked up): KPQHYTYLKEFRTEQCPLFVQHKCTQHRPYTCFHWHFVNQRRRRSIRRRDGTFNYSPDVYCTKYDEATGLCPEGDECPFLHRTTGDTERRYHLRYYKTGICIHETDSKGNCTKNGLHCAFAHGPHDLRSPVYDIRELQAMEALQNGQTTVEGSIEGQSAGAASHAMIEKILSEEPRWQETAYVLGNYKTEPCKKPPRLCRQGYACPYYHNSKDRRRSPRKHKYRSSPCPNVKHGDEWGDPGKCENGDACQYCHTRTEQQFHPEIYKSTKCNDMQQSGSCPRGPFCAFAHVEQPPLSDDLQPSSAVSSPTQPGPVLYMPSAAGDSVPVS
Technique: RNA Bind-n-Seq
Form: RNA
Matrix: in vitro
Tested at: 100 nM
Notes: RNA with constant flanks, vertebrate orthologous sites, ends assumed
Relative to: input RNA pool
Reading: higher = stronger binding
Constant ends, left off below: GGGAGUUCUACAGUCCGACGAUC … CAACAGAGGAUUGAGCAUCA
Strand | bound/input enrichment
GAAAAUCACGGCCGCUUUUACCUGCCUCAGUGAGGUAACGUCUCCCCUGACGUUUUAGAGCGCAUCACACAUGUCUUUCCACAUUUCAUCUCUUUACACUUACACUCAUCUUCAAAAAGG | 0.586 ratio
GAUCUGGACCUUGGAGCUGAACCAGAGAGCUAGCAAAAGUAAGGCAGACUUGUAAAAUUAUAGCCAUGUACAGCUGCACAACAACAGUCCUACCACUAGCAGCUGCAUUAAAGUAUUUAU | 0.554 ratio
UCAUUUUUAAUUUUAAUUUUAUUUUAUACAAUGUGUAGACAGUUCCCUGUUCUCUGCAUUUAGAAGUAUACACAAUAUAAAUCUGUUAAUUCUGUAAGUAAUUUUUAUAAUUAUGAUGUA | 0.696 ratio
GGCACGCCCAGUUGGUCCUCUCGCAGCAAAGGAUUUCAAUUGCUUUUUUUACAACUUUUUUUGAAGUUGCUGCUGCUCUUAACCAUGAUGGUCAGGACACCGCCAAUCCCAGGGGAGAAA | 0.522 ratio
CUCUCUAAGUGACAGUAUCCCAUCUGUAGCAGAUUCCCACUCAAGUCAUUUUUCUGAGUUUAGUUGCUCUGAUAUGGAAAGUAUGAAAACCUCAUGUAGCCAUGGUUCCAAUGAUUAUCA | 0.483 ratio
CAUUGUACUGCAAAAAUCAUCCUUCUUCUUAAACUAAGCACAGUGAUAACUAGUCUGCACUACUAGAAUCACUUAAUAUUACCUUUCAUUUGCAAUUACCUUUUAAGUGAUCUGUUUGGU | 0.731 ratio
GAAGAUGGUGGUUGUACAUUAUUUCAUUUAGAAAAUAUAAAAUUCAUUUUGUUUUGAAGCUAGGUGUUAAACUGGAAUAGCUAUUAUACCCCCACAGAAUGGGGCAGUUGUGCCCUUCCC | 1.42 ratio
GAUUUGGACCUUGGAGCUGAACCAGUGAGCUAGCAAAAGUAAAGCAGCCUUGUAAAAUUAUAGCUAUAUGCAGCUGCACAACACAGUCCUACCACUAGCAGCUGUGUUAAAGUAUUUAUA | 0.608 ratio
CAGUUUGUAUGUACAUUAUUCAUAUUCCUCUCUGUUGUGUUUUGGGGGGAAAAGACAUUUUAGCCUUUUUUAAAAGUUACUGAUUUAAUUUCAUGUUAUUUGGUUGCAUGAGGUUGCCCU | 1.26 ratio
ACAGGAGCAGCAUAGGCUGUUUGAGCUUUGGGGAAAUGAGCUUUGCUUUUUAUAUUUAACUAGAAUACUUUUAUAUGAUGGGUGCUUUGAGUGUGAAUGCAGCAGGCUCUUUAUUUCCAA | 2.06 ratio
AGUUAUCCCAGUUUACUGUGUUGAGUUGGCAUUGUACAGAAAUUAACAGCCAUAUUGGUCUAGAAACGUUAAACUUAAUUUUUUUCCAUUUGUACAGGGGUAACGCACUGUAUUAAAUAC | 0.751 ratio

Sample 4
Target: CCNB3, cyclin fold, Cln2 fusion (human)
Technique: yeast growth competition, sequencing
Matrix: yeast
Notes: weak parent motif
Relative to: not given
Reading: higher = stronger binding
Starting sequence: SLBP docking peptide (human); ARYKRKLLINDFG; partner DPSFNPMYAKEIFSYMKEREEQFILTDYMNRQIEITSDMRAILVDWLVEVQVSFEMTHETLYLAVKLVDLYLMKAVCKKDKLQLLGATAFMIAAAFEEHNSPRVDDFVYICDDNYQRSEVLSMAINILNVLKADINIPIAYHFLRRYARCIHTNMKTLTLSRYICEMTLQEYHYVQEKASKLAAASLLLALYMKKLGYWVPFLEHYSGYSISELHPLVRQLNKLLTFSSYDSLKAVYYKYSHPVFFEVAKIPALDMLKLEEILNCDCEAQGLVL
Substitution | normalised enrichment score
R5Y | -0.238
I9P | 0.409
R2L | 0.0292
G13P | 0.491
R5A | 0.3
L8S | -0.084
A1L | -0.511
K6I | 0.369
R2A | -0.000954
R5T | 0.0965
K4L | 0.329
L8A | 0.163
K6A | 0.375
L7C | 0.177
R2V | 0.179
A1T | 0.302
I9K | 0.368

Sample 5
Target: Histone acetyltransferase KAT6A, both winged helices, GST fusion (KAT6A, Homo sapiens, UniProt Q92794, residues 1-181)
Technique: protein binding microarray
Form: double-stranded DNA, one strand shown
Matrix: in vitro
Tested at: not given
Notes: 8-mer, flanks averaged, mean of 2 arrays, mostly near background
Relative to: not given
Reading: higher = stronger binding
Residues (chain): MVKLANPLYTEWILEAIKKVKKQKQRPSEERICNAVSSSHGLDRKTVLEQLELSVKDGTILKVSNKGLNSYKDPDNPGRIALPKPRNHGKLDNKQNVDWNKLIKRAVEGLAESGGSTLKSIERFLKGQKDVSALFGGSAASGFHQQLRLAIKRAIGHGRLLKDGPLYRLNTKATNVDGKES
Strand | E-score
TAGGAGCA | -0.195
GCCACCTA | -0.0563
CCTGACCA | -0.188
TAGCCCGA | 0.0879
GCCGGAGC | 0.249
CCGCAAGA | 0.133
AAGGATCA | -0.177
AACCCGCC | 0.306
ACGGATTC | 0.143
ACTGTACG | 0.00847
CGAGGTGC | 0.0205
AAACAAAA | -0.00997
AACAACCT | -0.204
GAAGATCC | -0.0774
AATAACAT | -0.0599
AATGTTCA | -0.00888
CAACTCGC | 0.0336
CAGGAACA | -0.218
TGAGTCAA | -0.118
ATAAAAAA | -0.00155
ATGCCATA | -0.162
CAACATTA | -0.0551
CCTATGCC | -0.0454
ATCGTGGA | -0.139

For quick reference, copied from above (sample 5):
Strand | E-score
CCTGACCA | -0.188
TAGCCCGA | 0.0879
GCCGGAGC | 0.249
CCGCAAGA | 0.133
AAGGATCA | -0.177
AACCCGCC | 0.306
ACGGATTC | 0.143
ACTGTACG | 0.00847
CGAGGTGC | 0.0205
AAACAAAA | -0.00997
AACAACCT | -0.204
GAAGATCC | -0.0774
